Experimental data collected from several papers.
± marks the error that the study gave.
Complement C3 C3b fragment: Complement C3, C3b fragment (Homo sapiens, UniProt P01024)
Nos2: Nitric oxide synthase, inducible (Nos2, Mus musculus, UniProt P29477)
Histone chaperone ASF1A: Histone chaperone ASF1A (Homo sapiens, UniProt Q9Y294)
lecA: PA-I galactophilic lectin (lecA, Pseudomonas aeruginosa, UniProt Q05097)

SMILES	target	test	system	setting	how to read	quantity	value
O=C1C=CC2(c3coc4cc(O)ccc4c3=O)c3cc(-c4coc5cc(O)ccc5c4=O)ccc3OC2C1 (centres unmarked)	laccase (Trametes versicolor)	substrate	–	product formation	–	Km	431 ± 32 µM
CC(=O)N[C@@H](Cc1c[nH]c2ccccc12)C(=O)N[C@@H](Cc1c[nH]c2ccccc12)C(=O)N[C@@H](Cc1c[nH]c2ccccc12)C(=O)N[C@@H](Cc1c[nH]c2ccccc12)C(=O)N[C@@H](Cc1c[nH]c2ccccc12)C(=O)N[C@@H](Cc1c[nH]c2ccccc12)C(=O)N[C@@H](Cc1c[nH]c2ccccc12)C(=O)NCCCC[C@@H]1NC(=O)[C@H](CCCNC(=N)N)NC(=O)[C@H](CCCNC(=N)N)NC(=O)[C@H](CCCNC(=N)N)NC(=O)[C@H](CCCNC(=N)N)NC(=O)[C@H](CCCNC(=N)N)NC1=O	MTOR (Homo sapiens, UniProt P42345)	enzyme activity, inhibitor	–	5 µM	–	remaining activity	112%
OC(Cc1cc(-c2ccc(C(O)C(F)(F)F)s2)sc1-c1ccc(-c2sc(-c3ccc(C(O)C(F)(F)F)s3)cc2CC(O)C(F)(F)F)s1)C(F)(F)F (centres unmarked)	Microtubule-associated protein tau, 0N4R isoform, aggregated (MAPT, Homo sapiens, UniProt P10636)	binding, fluorescence	10% sucrose tau fraction	–	reference: 10% over 20% fraction	Kd ratio	14
CCOc1ccc(C[C@@H]2NC(=O)[C@H](C(C)C)NC(=O)[C@@H](NC(=O)[C@@H](NC(C)=O)[C@@H](C)CC)CSSC[C@@H](C(=O)N[C@H](C(N)=O)[C@@H](C)O)NC(=O)[C@H](CCCNC(=N)N)NC(=O)[C@H](Cc3c[nH]cn3)NC(=O)[C@H](C)NC(=O)CNC(=O)[C@H](Cc3c[nH]c4ccccc34)NC(=O)[C@H](CC(=O)O)NC(=O)[C@H](CCC(N)=O)NC2=O)cc1	Complement C3 (Homo sapiens, UniProt P01024)	ITC	–	25 °C	more negative = stronger binding	ΔG	-9.5 kcal/mol
Nc1ncnc2c1ncn2[C@@H]1O[C@H](CO)[C@@H](O[C@H]2O[C@H](CO)[C@@H](OP(=O)(O)O)[C@H](OP(=O)(O)O)[C@H]2O)[C@H]1O	Itpr1 (Rattus norvegicus, UniProt P29994, del318-332/R568Q)	Ca2+ release	DT40, permeabilized	–	reference: R568Q over wild type	fold loss of potency	1.6 fold
Nc1ncnc2c1ncn2[C@H]1C[C@H](O)[C@@H](COP(=O)(O)OP(=O)(O)[C@@H](F)P(=O)(O)O)O1	DNA polymerase eta (POLH, Homo sapiens, UniProt Q9Y253)	dNTP incorporation, single-turnover kinetics	–	W sequence, A·T pair	reference: non-enzymatic LFER line	delta effective pKa4	0.2 pK units
CC[C@@H]1NC(=O)CNC(=O)[C@H](Cc2c[nH]c3ccccc23)NC(=O)[C@H](CC(=O)O)NC(=O)[C@H](CCC(N)=O)NC(=O)[C@H](Cc2c[nH]c3ccccc23)NC(=O)[C@H](C(C)C)NC(=O)[C@@H](NC(=O)[C@@H](NC(C)=O)[C@@H](C)CC)CSSC[C@@H](C(=O)N[C@H](C(N)=O)[C@@H](C)O)NC(=O)[C@H](CCCNC(=N)N)NC(=O)[C@H](Cc2c[nH]cn2)NC1=O	Complement C3 C3b fragment	SPR	–	pH 7.4, 25 °C	–	kon	570000 ± 90000 M⁻¹ s⁻¹
Cc1ncsc1-c1ccc(C(CO)NC(=O)C2CC(O)CN2C(=O)C(C(C)C)n2cc(-c3ccc(COc4c(-c5c(C)c(F)cc6[nH]ncc56)c(C5CC5)cc5c(N6CC7CC6CN7)nc(OC6CCOCC6)nc45)cc3)nn2)cc1 (centres unmarked)	GTPase KRas (KRAS, Homo sapiens, UniProt P01116, G12D)	degrader	mouse PK-59 xenograft, tumour	intravenous, 10 mg/kg single, 144 h	–	protein degradation	35%
N=C(N)NCCC[C@H](NC(=O)[C@@H]1CCCN1C(=O)[C@@H]1CCCN1C(=O)[C@H](CCCNC(=N)N)NC(=O)[C@H](CCC(=O)O)NC(=O)CNC(=O)[C@@H](N)CCCNC(=N)N)C(N)=O	Neuropilin-1 (NRP1, Homo sapiens, UniProt O14786)	SPR	–	–	–	binding free energy ΔG	-8.5 kcal/mol
Cc1cc(N)nc(C[C@H]2CNC[C@H]2OCCC/C=C/c2cccc(F)c2)c1	Nos2	enzyme activity, inhibitor	–	–	reference: Ki Nos2 over Ki nNOS	selectivity ratio	9
Cc1nc(N=Nc2ccc(S(=O)(=O)O)cc2S(=O)(=O)O)c(COP(=O)(O)O)c(C=O)c1O	Nucleoside triphosphate diphosphohydrolase 3 (Rattus norvegicus, UniProt A6I415)	capillary electrophoresis	–	–	reference: NTPDase1 and NTPDase2 over NTPDase3	Ki selectivity ratio	15 fold
CC[C@H](C)[C@H](NC(=O)[C@@H]1CSSC[C@H](NC(=O)[C@@H](NC(C)=O)[C@@H](C)CC)C(=O)N[C@@H](C(C)C)C(=O)N[C@@H](Cc2cn(C)c3ccccc23)C(=O)N[C@@H](CCC(N)=O)C(=O)N[C@@H](CC(=O)O)C(=O)N[C@@H](Cc2c[nH]c3ccccc23)C(=O)NCC(=O)N[C@@H](C)C(=O)N[C@@H](Cc2c[nH]cn2)C(=O)N[C@@H](CCCNC(=N)N)C(=O)N1)C(N)=O	Complement C3 C3b fragment	SPR	–	25 °C	reference: [Trp(Me)4]-Ac-compstatin	relative dissociation rate constant	1
O=C([O-])CN1CCN(CC(=O)[O-])CCN(C(CCC(=O)NCCCCCN(CCCC[C@H](NC(=O)N[C@@H](CCC(=O)O)C(=O)O)C(=O)O)C(=O)c2ccc(I)cc2)C(=O)O)CCN(CC(=O)[O-])CC1.[68Ga+3] (some centres unmarked)	FOLH1 (Homo sapiens, UniProt Q04609)	PET/CT	human, prostate lesion	–	reference: normal liver	tumour-to-background ratio	9.58
CC[C@H](C)[C@H](NC(=O)[C@@H](N)CCCCN)C(=O)N1CCC[C@H]1C(=O)N[C@@H](Cc1ccc(O)cc1)C(=O)N[C@@H](Cc1ccccc1)C(=O)N[C@@H](Cc1c[nH]cn1)C(=O)N[C@@H](C)C(=O)NCC(=O)NCC(=O)N[C@@H](CO)C(=O)N[C@@H](CCCCN)C(=O)N[C@@H](CS)C(=O)N[C@@H](CO)C(=O)N[C@H](C(=O)N[C@@H](Cc1c[nH]c2ccccc12)C(=O)N1CCC[C@H]1C(=O)N[C@@H](CC(C)C)C(=O)N1CCC[C@H]1C(=O)N[C@@H](CCC(N)=O)C(=O)N1CCC[C@H]1C(=O)N[C@@H](CO)C(=O)O)[C@@H](C)OP(=O)(O)O	YWHAZ (Homo sapiens, UniProt P63104)	binding, ITC	–	pH 7.4, 37 °C, with: phosphorylated PRLR peptide	–	ΔG	-9.417 ± 0.0717 kcal/mol
CCOC(=O)C1=CN([C@@H]2O[C@H](CO)[C@@H](O)[C@H]2O)C=CC1	SIRT5 (Homo sapiens, UniProt Q9NXA8, W222A)	desuccinylase activity, activator	–	concentration not given	–	activation	1.5 fold
CC[C@H](C)[C@H](NC(=O)[C@H](CCCNC(=N)N)NC(=O)NC[C@H](CCC(N)=O)NC(=O)NC[C@H](CC(C)C)NC(=O)NC[C@H](CCCNC(=N)N)NC(=O)NC[C@H](C)NC(=O)[C@H](CCCCN)NC(=O)[C@H](CCC(=O)O)NC(C)=O)C(=O)N[C@@H](C)C(N)=O	Histone chaperone ASF1A	isothermal titration calorimetry	–	pH 7.5, 20 °C	–	-TΔS	-4.7 ± 0.5 kcal/mol

SMILES	target	test	system	setting	how to read	quantity	value
NC(=O)CN1C(=O)C(O)(CC(=O)c2cccc(N)c2)c2ccccc21 (centres unmarked)	uncharacterized protein (Leishmania donovani, UniProt A0A3Q8IA09)	competitive ITC	–	with: glutamate 60 µM	–	TΔS	-4.62 kcal/mol
COc1ccc(CCCN[C@H]2CCC[C@@H]2CN[C@H]2CCC[C@@H]2CNCCCCN[C@H]2CCC[C@@H]2CN)cc1	KDM1B (Homo sapiens, UniProt Q8NB78)	peroxidase-coupled	–	–	reference: Ki for KDM1B over Ki for LSD1	selectivity ratio	1.8
Cc1cc(Cl)cc(-c2ccnc3cc(CN4C(=O)C5C(C4=O)C5(C)C)sc23)c1C[C@@H]1CNCCO1 (some centres unmarked)	USP7 (Homo sapiens, UniProt Q93009, V517F)	isothermal titration calorimetry	–	–	reference: V517F over wild type	Kd ratio	57 fold
Cc1ccc2c(c1)/C(=N/N=C/c1cccc(OCc3ccccc3)c1)C(=O)N2	MAOA (Homo sapiens, UniProt P21397)	enzyme activity, inhibitor	–	10 µM	–	remaining activity	65.2%
Cc1cccc(C)c1Nc1nn(C)c2nc(Nc3ccc4c(c3)CN(CC3CCN(c5ccc6c(c5)C(=O)N(C5CCC(=O)NC5=O)C6=O)CC3)CC4)ncc12 (centres unmarked)	BTK/CRBN (Homo sapiens, UniProt Q06187+Q96SW2)	ternary complex formation, TR-FRET	–	30 min	–	hook effect onset	~160 nM
CNC1C[S+]2CC[S+]3CC[S+](C1)[Ru-4]321([N]=C=S)[n]2c3ccc(OC)cc3c3c4c(c5cc(F)c[n+]1c5c32)C(=O)NC4=O (centres unmarked)	RPS6KB1 (Homo sapiens, UniProt P23443)	KINOMEscan	–	100 nM	reference: control	remaining binding	71%
CNc1ccccc1C(=O)O[C@H]1C[C@H](n2cnc3c(N)ncnc32)O[C@@H]1COP(=O)(O)OP(=O)(O)O	Unconventional myosin-Va (Gallus gallus, UniProt Q02440, D297C/G292C/I296C/S293C/V295G)	FRET	compound complex	15 °C, with: 2 mM MgCl2	–	donor-acceptor distance	18.6 Å
CC[C@H](C)[C@@H]1NC(=O)[C@H](CC(N)=O)NC(=O)[C@H](Cc2ccc(O)cc2)NC(=O)[C@H](Cc2c[nH]c3ccccc23)NC(=O)[C@H](C)NC(=O)[C@@H](N)CSSC[C@@H]2NC(=O)[C@@H](CSC[C@@H](C(=O)N[C@H]3C(=O)N[C@@H](CC(C)C)C(=O)N[C@H]4C(=O)N[C@@H](C(C)C)C(=O)N[C@@H](CCC(=O)O)C(=O)N[C@@H](CS[C@H]3C)C(=O)N[C@@H](CCSC)C(=O)N3CCC[C@H]3C(=O)N[C@@H](CO)C(=O)N[C@H](C(=O)N[C@@H](CC(N)=O)C(=O)O)CS[C@H]4C)NC(=O)[C@H](Cc3ccc(O)cc3)NC(=O)[C@H](C)NC(=O)CNC(=O)[C@H](CCCCN)NC(=O)[C@H](CC(N)=O)NC(=O)CNC(=O)[C@H](CC(C)C)NC(=O)[C@H](CCCNC(=N)N)NC2=O)NC1=O	PBP1b	transglycosylation	–	6 µM	–	lipid II level fully inhibited	3 µM
OC[C@H]1O[C@@H](OCc2cn([C@@H]3O[C@H](CO)[C@@H](n4cc(CCCCc5cn([C@H]6[C@H](O)[C@@H](O)[C@H](n7cc(CO[C@@H]8O[C@H](CO)[C@H](O)[C@H](O)[C@H]8O)nn7)O[C@@H]6CO)nn5)nn4)[C@H](O)[C@H]3O)nn2)[C@H](O)[C@@H](O)[C@H]1O	lecA	isothermal titration calorimetry	–	298 K	–	-TΔS	3.6 ± 0.3 kcal/mol
CC[C@H](C)[C@H](NC(=O)[C@H](CCCNC(=N)N)NC(=O)[C@H](CCCNC(=N)N)NC(=O)[C@H](C)NC(=O)[C@H](CC(C)C)NC(=O)[C@H](CCCNC(=N)N)NC(=O)[C@H](C)NC(=O)[C@H](Cc1c[nH]c2ccccc12)NC(=O)[C@H](CCCCN)NC(=O)[C@H](CCC(=O)O)NC(=O)[C@H](CCC(=O)O)NC(=O)[C@@H](NC(=O)[C@H](CO)NC(=O)[C@H](C)NC(C)=O)[C@@H](C)O)C(=O)N[C@@H](C)C(=O)NCC(N)=O	Histone chaperone ASF1A	isothermal titration calorimetry	–	pH 7.5, 20 °C	–	-TΔS	2.9 ± 0.4 kcal/mol
OC(c1cccc(C2=CCCNC2)n1)C(F)(F)F (centres unmarked)	HTR2B (Homo sapiens, UniProt P41595)	β-arrestin recruitment, agonist	–	–	–	Emax	71.1%
C=C1C(=O)O[C@@H]2[C@H]3C(CO)=CC(=O)C3=C(C)C[C@H](O)[C@@H]12	MAL12 (Saccharomyces cerevisiae S288c, UniProt P53341)	fluorescence quenching	–	298 K	–	Stern-Volmer constant	6630 L/mol
C[C@]12CC[C@H]3[C@@H](CCC4=CC(=O)CC[C@@]43C)[C@@H]1CC[C@@H]2C(=O)CO	CYP11B2 (Homo sapiens, UniProt P19099)	substrate	–	–	reference: CYP11B2:adrenodoxin 1:10 over 1:1	Km decrease	2 fold
O=C(COCc1ccccc1)N[C@@H](Cc1cn(CCNC(=O)c2ccc(S[C@@H]3O[C@H](CO)[C@H](O)[C@H](O)[C@H]3O)cc2)nn1)C(=O)NCCO	lecA	binding, isothermal titration calorimetry	–	25 °C	–	−TΔS	4.95 ± 0.0717 kcal/mol
OC[C@H]1O[C@@H](Oc2ccc(-c3cn([C@H]4[C@H](O)[C@@H](O)[C@H](c5cn([C@H]6[C@H](O)[C@@H](O)[C@H](n7cc(-c8ccc(O[C@@H]9O[C@H](CO)[C@H](O)[C@H](O)[C@H]9O)cc8)nn7)O[C@@H]6CO)nn5)O[C@@H]4CO)nn3)cc2)[C@H](O)[C@@H](O)[C@H]1O	lecA	isothermal titration calorimetry	–	298 K	–	-TΔS	7.1 ± 0.6 kcal/mol
CC(C)CC(=N)NCCC[C@H](N)C(=O)O	Nos2	enzyme activity, inhibitor	–	–	–	kinact	0.347 min⁻¹
